Assay results gathered from unrelated publications.
Each line is one published result; not all experiments were run side by side. Several values in a cell are separate wells, animals, samples, runs or records. ± marks the error that the study gave.

SMILES | assay | test system | setting | tissue uptake
Cc1cc(C)n(CCN(CCN)CCCCCCNC(=O)[C@@H](N)Cc2c[nH]cn2)n1.[99Tc+].[C-]#[O+].[C-]#[O+].[C-]#[O+] |  | BALB/c nude mice, A549 xenograft, liver | intravenous, 24 h | 8.6 ± 1.39 %IA/g
COc1ccc(Nc2nc(Nc3ccc(OCCOCC[18F])cc3)ncc2Br)cc1 |  | ICR mice, S180 tumour-bearing, liver | intravenous, 370 kBq, 15 min | 3.36 ± 0.56 %ID/g
CC(C)C[C@H](NC(=O)[C@@H](CCCCNC(=O)[C@@H](Cc1ccccc1)NC(=O)CCCCCCCNC(=O)CN1CCN(CC(=O)O)CCN(CC(=O)O)CCN(CC(=O)O)CC1)NC(=O)[C@H](Cc1ccc(O)cc1)NC(=O)[C@H](CO)NC(=O)[C@H](Cc1c[nH]c2ccccc12)NC(=O)[C@H](Cc1c[nH]cn1)NC(=O)[C@@H]1CCC(=O)N1)C(=O)N[C@@H](CCCNC(=N)N)C(=O)N1CCC[C@H]1C(=O)NCC(N)=O [indium-111 labelled] | biodistribution | male athymic nude mice, DU-145 prostate cancer xenograft, muscle | intravenous, 0.037 MBq, 2 h post-injection | 0.11 ± 0.03 %ID/g
O=C([O-])CN1CCN(CC(=O)[O-])CCN(CC(=O)NC[C@H]2CC[C@H](C(=O)N[C@H](Cc3cnc4ccccc4c3)C(=O)NCCCC[C@H](NC(=O)N[C@@H](CCC(=O)O)C(=O)O)C(=O)O)CC2)CCN(CC(=O)[O-])CC1.[64Cu+2] | ex vivo gamma counting | 22Rv1 tumour-bearing mice, bone | intravenous, 0.74 MBq, 1 h post-injection | 2.93 %ID/g
O=C(NCC1OC2CCC=CCCC2O1)c1ccc(COCCOCCOCC[18F])cc1 (stereo not shown) |  | healthy female BALB/c nude mice, stomach | intravenous, 7.4 MBq per mouse, 120 min | 1.6 ± 0.2 %ID/g
CCCC[C@H](NC(=O)COCCOCCNC(=O)CN1CCN(CC(=O)O)CCN(CC(=O)O)CC1)C(=O)N[C@H]1CC(=O)NCCCC[C@@H](C(N)=O)NC(=O)[C@H](Cc2c[nH]c3ccccc23)NC(=O)[C@H](CCCNC(=N)N)NC(=O)[C@@H](Cc2ccccc2)NC(=O)[C@H](Cc2c[nH]cn2)NC1=O [fluorine-18 labelled] |  | C57 mice, B16/F10 melanoma, liver | intravenous, 1 h, together with: NDP-MSH 10 µg | 1.14 ± 0.36 %ID/g
O=C(NCC1OC2CCC=CCCC2O1)c1ccc([18F])nc1 (stereo not shown) |  | healthy female BALB/c nude mice, muscle | intravenous, 7.4 MBq per mouse, 120 min | 0.3 ± 0.02 %ID/g
CCCC[C@H](NC(=O)CCCCCCCNC(=O)CN1CCN(CC(=O)O)CCN(CC(=O)O)CC1)C(=O)N[C@H]1CC(=O)NCCCC[C@@H](C(N)=O)NC(=O)[C@H](Cc2c[nH]c3ccccc23)NC(=O)[C@H](CCCNC(=N)N)NC(=O)[C@@H](Cc2ccccc2)NC(=O)[C@H](Cc2c[nH]cn2)NC1=O [fluorine-18 labelled] |  | C57 mice B16-F10 melanoma, bone | intravenous, 0.37 MBq, 0.5 h | 3.7 ± 0.92 %ID/g
N#C[C@@H]1CCCN1C(=O)CNC(=O)c1ccnc2ccc(OCCCN3CCN(C(=O)CCc4ccc5c(c4)CN4CCN(Cc6cc(CCC(=O)O)ccc6O)CC(=O)[O][Al-]([18F])([O]C(=O)C4)[O]5)CC3)cc12 (stereo partly shown) |  | BALB/c nude mice, U-87 MG xenograft, lung | 2 h | 1.28 ± 0.33 %ID/g
COc1ccc2c(c1)C(C)(C)C(/C=C/C1=C(Oc3ccc(C(=O)NCCCCOc4cc(CN(Cc5ccccn5)Cc5ccccn5)cc(CN(Cc5ccccn5)Cc5ccccn5)c4)cc3)C(=C/C=C3/N(CCCCS(=O)(=O)[O-])c4ccc(OC)cc4C3(C)C)CCC1)=[N+]2CCCCS(=O)(=O)[O-].O=[N+]([O-])[O-].O=[N+]([O-])[O-].[99Tc+].[C-]#[O+].[C-]#[O+].[C-]#[O+].[Zn+2] |  | BALB/c mice, healthy, adipose tissue | 12 h post-injection | 0.18 %ID/g and 0.21 %ID/g and 0.2 %ID/g

Some of these lines once more:
SMILES | assay | test system | setting | tissue uptake
CCCC[C@H](NC(=O)CCCCCCCNC(=O)CN1CCN(CC(=O)O)CCN(CC(=O)O)CC1)C(=O)N[C@H]1CC(=O)NCCCC[C@@H](C(N)=O)NC(=O)[C@H](Cc2c[nH]c3ccccc23)NC(=O)[C@H](CCCNC(=N)N)NC(=O)[C@@H](Cc2ccccc2)NC(=O)[C@H](Cc2c[nH]cn2)NC1=O [fluorine-18 labelled] |  | C57 mice B16-F10 melanoma, bone | intravenous, 0.37 MBq, 0.5 h | 3.7 ± 0.92 %ID/g
